Published values collected from several papers.
Numbered parts are unrelated; each lists some results of a single study. Positions count from the first letter of the parent shown.

Sample 1
Target: Interferon regulatory factor 5, full length, phosphomimetic (IRF5, Homo sapiens, UniProt Q13568-2, residues 1-514, S451D/S453D/S456D/S462D)
Technique: protein-binding microarray
Molecule type: double-stranded DNA, one strand shown
Sample: in vitro
Concentration: 940 nM top
Notes: 60-bp whole probe
Added: salmon DNA 0.4 mg/ml
Reference: random background probes
Direction: higher = stronger binding
All sequences stand within: GCCTAGCAC … GTCTTGATTCGCTTGACGCTGCTG
Strand | fitted relative affinity
TTAGGTTTCTACTATCGGTTAGTGCTA | 3.75 z-score
GCCGATATCGGGACTGGAGACGTGCTA | -0.243 z-score
GACGATTACAGTTTCGAGACGTGCTAG | 3.64 z-score
GACGGTCTCCTCCTCCTGACGTGCTAG | -0.0598 z-score
TTAGAACTGATTTTCGATTAGTGCTAG | 0.786 z-score
GACGGTTTCGACTATCGAGACGTGCTA | 7.88 z-score
TCATGTTTGGCCCTGAAACTGTGCTAG | -0.104 z-score
TCAAGTAGCTTTCTGAGACTGTGCTAG | 0.0331 z-score
TTAGATTTCAGTTCCGATCAGTGCTAG | 1.87 z-score
TCACCTCTGCATTCCCTACTGTGCTAG | 0.769 z-score
GTAGAACTGAGTCTCGATTAGTGCTAG | 2.24 z-score
GACGGACGGCTTCTCCTGACGTGCTAG | -0.381 z-score
TTAGATTTCAGATTGGATTAGTGCTAG | 0.0745 z-score
GACGGTATCCTACTGCTCACGTGCTAG | -0.0547 z-score
TCATCTTTCGATGCTAAAACTGTGCTA | 2.53 z-score
TTAGATTTCAATCTCGATTAGTGCTAG | 1.23 z-score
TGGGAAATTCCTCTGAGGCAGTGCTAG | -0.548 z-score
GACGAACTGGGGTTCCGAGACGTGCTA | -0.226 z-score
CAACCAATCATTTTTGCTTAGTGCTAG | -0.154 z-score
TTAGATTCGAGTTTCGATTAGTGCTAG | 7.71 z-score
GAAATTTTTTTTCTAACTAAGTGCTAG | 0.7 z-score
TGGGAAATTCCTCTGAATAGGTGCTAG | -0.276 z-score
TTAGGAATGGACACTGGGTTAGTGCTA | -0.254 z-score
TTAGGCTTCGGTATCGGTTAGTGCTAG | 4.76 z-score
AGAATCTTAGATATTAAACTGTGCTAG | -0.409 z-score

Sample 2
Target: Phosphate system positive regulatory protein PHO4, full length, GST-tagged (PHO4, Saccharomyces cerevisiae, UniProt P07270, residues 1-312)
Technique: competition protein-binding microarray
Molecule type: double-stranded DNA, one strand shown
Sample: in vitro
Concentration: 2 µM
Notes: whole 60-bp probe, lowest competitor level
Added: Cbf1 competitor, 0.05 µM
Direction: higher = stronger binding
All sequences stand within: … GTCTTGATTCGCTTGACGCTGCTG
Residues (chain): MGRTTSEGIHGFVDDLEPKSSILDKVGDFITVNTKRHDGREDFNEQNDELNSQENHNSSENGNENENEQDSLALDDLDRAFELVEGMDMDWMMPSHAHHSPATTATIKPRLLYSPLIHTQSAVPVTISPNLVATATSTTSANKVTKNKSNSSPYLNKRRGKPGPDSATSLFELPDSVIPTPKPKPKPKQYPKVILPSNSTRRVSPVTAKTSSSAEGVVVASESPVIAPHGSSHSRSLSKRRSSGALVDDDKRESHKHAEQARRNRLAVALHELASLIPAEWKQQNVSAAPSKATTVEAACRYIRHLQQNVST
Strand | fluorescence intensity
TGGATTTCAACGGGAAACGTGACTCGTACAGAATTT | 10900 a.u.
GGAAGAAGCATCTCACGCATGGAAAACAATTGACCT | 5940 a.u.
AAAACAAGATTCTCCACCGTGATGGAAAACCTCAAA | 4780 a.u.
ACAGTGTCAAGCTGGCACGATCGTTCTTGCGCAGTC | 6380 a.u.
AGATCCTCTTGGGATCTTGTGCGACGGGGAGATTGA | 3930 a.u.
CGTCCTAGTGATTGCTCAGTGGGTGCCATGAGGAAG | 6520 a.u.
CTTCTGTAAATTTGTATGGTGGGTGGACGCGCCCCG | 4200 a.u.
TGTAAGTTGCAATCGCACGTGTGTTGTAGCCATGTA | 14800 a.u.
TAATAGAGATATCACCACGTGTGGAGAATAGATTCA | 18300 a.u.
TCAAATATGCACCATCTCGTGATGGTTCAAAGATTG | 6360 a.u.
CTTCTCTTTCCCTGGCACGTGCAATTTTACCTCTGA | 19700 a.u.
AAAGCGGTAATTTGGACCGTGGGTGCAGATATCTAT | 9140 a.u.
AGTTGTAAGAATTTGCACGGGCCCACAAATCCGACA | 7630 a.u.
GTCTTGTCTCATTGATAAGTGGGTGTCCCCACTTCA | 4320 a.u.
AAAGCGGTAATTTGGCTTGTGGGTGCAGATATCTAT | 4520 a.u.
AAAGCGGTAATTTGGCACGTGGGTGCAGATATCTAT | 21700 a.u.
CGGGGTTAAGTTTGGAAAGTGGGTGGCTTGCAGCAG | 4570 a.u.
CGGGGTTAAGTTTGCCACGTGGGTGGCTTGCAGCAG | 17400 a.u.
TGTACCATAGGTGTCCACATGTAAAGACAATGGTTC | 6920 a.u.
GTACTTGTTTCCGTTTCCGTGCCAGGCTAGATCCAT | 4810 a.u.
TCAAACAAGATAGCGTTCGTGACAAAAGGGAGATGG | 5180 a.u.
CTTGCATTGACCGCGAACGTGTAACCACAAGCAAAG | 8580 a.u.
CATACCCAACCTTGAAGGGTGGGTGAAGATATTTGT | 3830 a.u.
CTTCTGTAAATTTGCAACGTGGGTGGACGCGCCCCG | 14100 a.u.
AAATTACTAAGTTGTCTTGTGGGTGACGCCGTATGA | 4250 a.u.

Sample 3
Target: RNA binding protein fox-1 homolog 2, RRM domain, GST-SBP tag (RBFOX2, Homo sapiens, UniProt O43251-10, residues 100-194)
Technique: RNA Bind-n-Seq
Molecule type: RNA
Sample: in vitro
Concentration: 365 nM
Notes: natural RNA segment, single round, ends assumed
Reference: no-protein control
Direction: higher = stronger binding
All sequences stand within: GGGAGUUCUACAGUCCGACGAUC … UGGAAUUCUCGGGUGCCAA
Construct (chain): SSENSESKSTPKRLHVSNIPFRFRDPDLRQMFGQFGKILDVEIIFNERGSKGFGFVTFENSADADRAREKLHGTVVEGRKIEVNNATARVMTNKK
Strand | RBNS enrichment (R)
CCACUGGGAUCACAGCAUUUCGGGGAACAUUGCCACACCAGUCAGAGAGCCCAGAACACCUGGGCAAGUAGGCGGACUGGCAGCCUGGCUCUGGGCCCUCGUCCACCGGG | 0.536
UUGCUAGUAGAUCAAAGCUAUUUUCACACGCUCUGUUUUCUAUCUUGUAUCGAUCCUGCGAAUCAGUGAUUAUCUUUGUUGGAAAACCUUAUCAAAUGUGUCUGCAAAUC | 0.525
UUAUUAUCCUCUCUCUUGGCUUCUCUCUUUCUGAUAUCAGUUCCUGAAGCCUCUCACUAACCCCUAGCUCCAGGAGUACCUCAGCAAUGUCCAUGGCUGAAGCUACACCC | 0.298
UUCGACUUGAUGAUGUGUGCACACUUCAGGUGGUGGGGACUUGAGCUUUAAAAAAACCUCCACAGCCGAAUCUUCUCCUCCGAGCCACUCCACGUCACGUCCAGCUGGGC | 0.384
GAAACAGAUCACUGAAAUUCAAAGAAAAUGUCUCUUAAGGUUCAUGUUUGUGGGAUUUUUUUUGGGGGGGGGGGAGGUGAUUUUCCAGAACCUAAUGAAAGGACCACGUU | 0.918
CUGUUUAUAUUUUUGGAAUAUUUGUAUUACAAUUGUUAAUAAAGGCUGGUUUAAAAACCUGUGCAGGACUGGGAGCUGCUUUUGCUUUCCUUCCCUUCCACUGACCUGAC | 0.407
UUUUAAAAAGUAUUGCCAAACAUUAAUGUUGAUUUCUAGUUAUUUAUUCUGGGAAUGUAUAGUAUUUGAAAACAGAAAUUGGUACCUUGCACACAUCAUCUGUAAGCUGU | 0.676
ACAUGAGGCCAGGAGGAUAAUUAACUUGAGGAAUAGACAACUUACAUUCACUACAUAUUUAAUCAUGCUUAAAAUGUUUGUAUUUACUGCCAUGCAAUUGAUAUAGUAAA | 0.539
CAUCCUGUGACUGCCAGGCAGAAAGGACAGGGCCCAGGUCAGCCUCAGUCUGCUGUGCCUCCAGACUGCAGAGCUCUCAGAACCCAGAACAGAGACGAAAAGGCUACCUC | 0.623
UUAUAAUUCACUAAAAUAAAGCAUCUAUUAGUGUCUGAUUUAGGAAUGUAAAAUGAUUCUGUAUUAAUGUAAAUAAGAUUAUCUAUUGCAAAAAGAUAUUUCAAACCUAA | 13
CUUGACUGACCCGUGCUCCUGGAGGAUCCCCAGUUGUGUCAAUGAUAGAUAGUUUAGUCAACAUCCCCAUCUUGUGUCAAUCUGGACUCAGAGGAAGGAGUCAGCAUCCU | 0.43
ACUUAUAGCUAUAUUUUACUACAAAAUUUGUGUAUAAAGAUAUAUUUAAGUGUUUUAGAUAAAUUUAAGUUACUCCAUAUGAAAUGUUUAAUUUCAGCUACUGUGAAUUC | 0.601

Sample 4
Target: CCNE2, cyclin fold, Cln2 fusion (human)
Technique: yeast growth competition, sequencing
Sample: yeast
Notes: weak parent motif
Reference: not given
Direction: higher = stronger binding
Starting sequence: CDKN1C docking peptide (human); TSACRSLFGPVDH
Variant | normalised enrichment score
TSACRSLAGPVDH [F8A] | 0.137
TSACRALFGPVDH [S6A] | 1.13
TAACRSLFGPVDH [S2A] | 1.65
TSACRSLFGPVDA [H13A] | 0.74
TSACKSLLGPVDH [R5K F8L] | -0.165
TSACRSAFGPVDH [L7A] | -0.364
TSACRSLLGPVDH [F8L] | 0.327
TSACASAFGPVDH [R5A L7A] | -0.0928
TSACRSLFGPVAH [D12A] | 0.731

Sample 5
Target: ABI1, truncated, D143A, DHFR fusion (Arabidopsis thaliana)
Technique: DHFR PCA, deep sequencing
Sample: yeast
Notes: methotrexate growth selection, single substitutions
Added: (+)-ABA 4.8 µM
Reference: wild-type fitted maximum
Direction: higher = stronger binding
Starting sequence: PYL1, truncated, DHFR fusion (Arabidopsis thaliana); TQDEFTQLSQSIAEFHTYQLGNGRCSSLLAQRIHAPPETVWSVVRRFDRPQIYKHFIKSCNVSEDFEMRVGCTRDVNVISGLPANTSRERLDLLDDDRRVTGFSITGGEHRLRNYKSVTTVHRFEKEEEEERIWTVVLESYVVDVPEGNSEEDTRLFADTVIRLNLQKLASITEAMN
Variant | relative binding score [%]
I79T | 53.7
Y18I | 21.2
T86I | 42.3
R69W | 13.7
S42R | 62.9
D96K | 7.51
L166K | -11.1
V118P | -3.38
L93T | 51.8
V137N | -6.45
Q10T | 73.8
H122C | 1.79
S171W | 46.5
Q31T | 4.99
Y141A | 13.6
I133E | 97.6
T173L | 22
S26E | 3.53
P37H | -15.3

Excerpt of the above (sample 5):
Variant | relative binding score [%]
D96K | 7.51
L166K | -11.1
V118P | -3.38
L93T | 51.8
V137N | -6.45
Q10T | 73.8
H122C | 1.79
S171W | 46.5
Q31T | 4.99
Y141A | 13.6
I133E | 97.6
T173L | 22
